Literature values as cited in several papers.
Compare with care: the assays were run in different laboratories. ± gives the spread as reported.

The IC50 of `NC1=NC2=NC(CCCCCCC(=O)N[C@H](CCC(=O)O)C(=O)O)=CC2C(=O)N1` (stereo partly shown) is reported as 0.0079 ± 0.00072 µM (KB; cell proliferation, inhibitor).
For `CCc1ccc(/C=C2\SC(=S)NC2=O)cc1`, the IC50 was 52 to 90 µM (multiple myeloma cell lines, human; cell growth).
With `Cc1c(O)cc(C[C@]23C[C@H](C[C@H](C)O2)c2c4c(c(O)c(C)c2O3)CO[C@@]2(C4)C[C@@H](O)C[C@H](C)O2)c(C=O)c1O` the IC50 was 22.3 µM (A549; cell growth).
The IC50 of `COc1c(O)ccc2c1cnc1c3cc4c(cc3ccc21)OCO4` is reported as 6.3 µM (human neutrophils; elastase release; together with: fMLF).
For `C=C(C)[C@H]1CC[C@@]2(C)CC[C@]3(C)C[C@H]4[C@@H](C)CC(=O)[C@H]4/C(C=O)=C\C[C@H]3[C@H]12`, the IC50 was 31 µM (MCF7).
With `CC(C)C[C@H]1NC(=O)[C@H](CC(=O)O)NC(=O)CNC(=O)[C@H](CCCNC(=N)N)NC(=O)[C@H](C)NC1=O` the IC50 was 0.91 µM (WM-115; cell adhesion, inhibitor; together with: immobilized CagL RAD mutant).
`CC1(C)C=Cc2cc3ccc(=O)oc3cc2O1` gave an IC50 of 24.1 µM (human neutrophils; elastase release; together with: fMLF).
`COC(=O)c1ccc(-n2cc(CCCOS(=O)(=O)c3ccc(C)cc3)nn2)cc1` gave an IC50 of over 50 µM (hepatoblastoma cells; cell proliferation).
`CNC1=CC(=O)c2cc(C)ncc2C1=O` has an IC50 of 0.2 to 50 µM (36 cancer cell lines; range).
`Nc1nc2[nH]c(CCCc3ccc(C(=O)N[C@@H](CCC(=O)O)C(=O)O)cc3)cc2c(=O)[nH]1` gave an IC50 of 0.649 µM (CHO PC43-10, human RFC-expressing; cell growth).
The IC50 of `CC(=O)OCC(Cc1ccccc1)NC(=O)C(Cc1ccccc1)NC(=O)c1ccccc1` (stereo not shown) is reported as about 15 µM (neutrophils; superoxide production; together with: fMLF).
`CN[C@H]1CN(c2ccc3c(=O)c(C(=O)O)cn(-c4nccs4)c3n2)C[C@@H]1OC` has an IC50 of 0.1 µM (MV4-11; cell growth).
For `CC(C)(C)c1ccc(S(=O)(=O)NCc2ccc(C(=O)Nc3cccnc3)cc2)cc1`, the IC50 was 7.9 µM (RCC4 (VHL-deficient); cell proliferation).
The IC50 of `Nc1nc2[nH]c(CCCCCCc3ccc(C(=O)N[C@@H](CCC(=O)O)C(=O)O)cc3)cc2c(=O)[nH]1` is reported as 0.198 µM (CHO D4 cells expressing human FR beta; cell growth).
`CNC(=N)NCCC[C@H](N)C(=O)O` gave an IC50 of 25.5 µM (RAW264.7; NO production; together with: LPS).
With `Oc1ccc(/C=C/c2cc(O)cc(O)c2)cc1` the IC50 was 32.2 µM (184B5/HER; PGE2 production, inhibitor).
The IC50 of `CC[C@@H](C(=O)[C@@H](C)[C@@H](O)[C@H](C)[C@@H]1O[C@@H]([C@@H](CC)C(=O)O)CC[C@@H]1C)[C@H]1O[C@]2(C=C[C@@H](O)[C@]3(CC[C@@](C)([C@H]4CC[C@](O)(CC)[C@H](C)O4)O3)O2)[C@H](C)C[C@@H]1C` is reported as 18.5 ± 1.5 µM (HMLER-shEcad; mammosphere viability).
`Cc1ccc(C(C)C)cc1.F[P-](F)(F)(F)(F)F.NCCN.[Cl][Ru+]` gave an IC50 of 4.4 µM (CH1; cell growth).
`C/C(=C/Cc1c(O)cc2oc(C)cc(=O)c2c1O)CO` gave an IC50 of 11.6 µM (human neutrophils; elastase release; together with: fMLF).
With `CCCS(=O)(=O)Nc1ccc(F)c(C(=O)c2c[nH]c3ncc(-c4ccc(Cl)cc4)cc23)c1F` the IC50 was 0.1 to 10 µM (BRAF V600E melanoma cell lines; cell growth).
The IC50 of `CC1(C)CC[C@]2(C(=O)O)CC[C@]3(C)C(=CC[C@@H]4[C@@]5(C)CC[C@H](O)C(C)(C)[C@@H]5CC[C@]43C)[C@@H]2C1` is reported as 1.4 µM (neutrophils; superoxide production; together with: fMLF).
With `COc1ccc(N(C)c2nc(C)nc3[nH]ccc23)cc1` the IC50 was 0.278 ± 0.019 µM (SK-OV-3; cell growth).
